Assay results gathered from unrelated publications.
Parts stem from different laboratories: compare values within a part only.

Series 1 — technique: protein binding microarray; form: double-stranded DNA, one strand shown; medium: in vitro; concentration: not given; baseline: not given; reading: higher = stronger binding; endpoint: E-score
Target: Histone acetyltransferase KAT6A, winged helix 2, GST fusion (KAT6A, Homo sapiens, UniProt Q92794, residues 85-181)
Notes: 8-mer, flanks averaged, mean of 2 arrays, mostly near background
Residues (chain): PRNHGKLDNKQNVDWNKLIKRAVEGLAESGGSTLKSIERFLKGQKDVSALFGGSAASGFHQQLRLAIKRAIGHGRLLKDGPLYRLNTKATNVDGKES
AGAGTATG: -0.096
GAGCCCGA: 0.148
ACAGATCG: -0.111
GCGCATCA: 0.0268
ATACACAT: -0.107
ACGAGTGA: -0.105
TACTCGCA: 0.0829
ACCTAGAT: -0.0772
AATGTTAT: -0.101
CCGACCAA: 0.162
CAGGTCTA: -0.076
ATGCGCAC: 0.0193
ACACAATC: 0.00519
CAACTACA: 0.0515
AGTTGGCC: -0.0222
CCGGGGAG: 0.133
GATAGTTA: -0.13
CAGAGCGA: 0.175
AAACGTCA: -0.203
AACAGAGG: -0.0605
ACGCCTTA: -0.131
GGGAACTA: 0.0948
ATTAGTCA: -0.124
TGAGGTAA: 0.0321
CTTACCGC: 0.105

Series 2 — technique: competition protein-binding microarray; form: double-stranded DNA, one strand shown; medium: in vitro; concentration: 2 µM; with: Cbf1 competitor, 0.05 µM; reading: higher = stronger binding; endpoint: fluorescence intensity
Target: Phosphate system positive regulatory protein PHO4, full length, GST-tagged (PHO4, Saccharomyces cerevisiae, UniProt P07270, residues 1-312)
Notes: whole 60-bp probe, lowest competitor level
Residues (chain): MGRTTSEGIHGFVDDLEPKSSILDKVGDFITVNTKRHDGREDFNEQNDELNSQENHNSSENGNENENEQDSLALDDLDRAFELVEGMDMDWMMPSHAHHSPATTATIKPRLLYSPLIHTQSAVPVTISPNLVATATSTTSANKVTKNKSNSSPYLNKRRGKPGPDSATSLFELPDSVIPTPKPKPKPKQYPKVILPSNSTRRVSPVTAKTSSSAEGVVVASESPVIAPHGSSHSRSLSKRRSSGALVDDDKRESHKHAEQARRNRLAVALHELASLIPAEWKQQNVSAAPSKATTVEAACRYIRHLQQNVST
CGGGGTTAAGTTTGAATCGTGGGTGGCTTGCAGCAGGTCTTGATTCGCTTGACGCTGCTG: 7120 a.u.
TTATTTTGGGCCCTCGTTCAAGGGCCATCTCACCCTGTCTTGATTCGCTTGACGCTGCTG: 3980 a.u.
AAGAAGCTAATTTTGCACGTAAACAACAATCTATACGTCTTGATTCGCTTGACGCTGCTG: 5060 a.u.
CTTGGTTACAGGTATCATGTGTGAAACTGTTTGCGGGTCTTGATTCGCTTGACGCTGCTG: 6530 a.u.
CGTCCTAGCGATTGATCCGTGGGTGCCATGAGGAAGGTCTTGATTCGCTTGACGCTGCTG: 7050 a.u.
ATTGAGATAAAAATAAACGTGGTTACTCCCGAGGCAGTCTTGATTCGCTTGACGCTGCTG: 12600 a.u.
AAGAATTTTATATGGCTTGTGATGAGACTGACGTCCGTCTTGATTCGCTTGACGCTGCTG: 3300 a.u.
ACAACAAACAAAGGCAACGTGCAAAAAACAACCATCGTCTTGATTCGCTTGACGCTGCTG: 13800 a.u.
CACTTCGGTTAGCATCACTTTTAACCAATCTCTTTCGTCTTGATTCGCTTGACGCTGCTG: 3610 a.u.
CATACCCAACCTTGCGGTGTGGGTGAAGATATTTGTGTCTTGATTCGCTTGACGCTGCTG: 5300 a.u.
TTTGTCCTGAGCAATCACCTGATAGTAACGCACCAGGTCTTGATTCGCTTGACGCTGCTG: 4070 a.u.
TGTGTCATTTCGACGTTCGTGATGGCAAAACGATGCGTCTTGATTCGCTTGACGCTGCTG: 6800 a.u.
AAGCTGAAGTATGGTGTCGTGACTCGGATTTCCGCTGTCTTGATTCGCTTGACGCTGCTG: 4800 a.u.
TGCGCAACAACTTGGCAAGTGGGTGTATGTCTAGAAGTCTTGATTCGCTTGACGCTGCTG: 4800 a.u.
AAGCATCCTTGTTTGCACGGGATGCCCTGCACAGTAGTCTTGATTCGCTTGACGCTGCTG: 8060 a.u.
CTTCCTTCTTTGAAACACGTTTCTTAATTGCACTTGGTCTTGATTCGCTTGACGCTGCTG: 13300 a.u.
TCCTCCACAAACAATCTCGTGGTCGTTTATCCATACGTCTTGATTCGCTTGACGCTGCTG: 10300 a.u.
CCTTGAGGAGAACTTCTAGTATATCTACATACCTAAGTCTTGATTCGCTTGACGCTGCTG: 3310 a.u.

Series 3 — technique: universal PBM; form: double-stranded DNA, one strand shown; medium: in vitro; concentration: not given; reading: higher = stronger binding; endpoint: E-score
Target: Sal-like protein 4, full length isoform B (SALL4, Homo sapiens, UniProt Q9UJQ4-2, residues 1-616)
Notes: 8-mer, flanks averaged, mean of replicates
ACCCGACT: -0.15
CCATATTA: 0.343
AGATCGTC: -0.154
CTAAAGTC: -0.0457
GGGCATCA: -0.188
GGAGACGA: -0.0663
CCCAATTA: 0.115
ACTCTGAG: -0.166
AATCTCAG: -0.0645
CCTACAGC: -0.0864
CTAAAGAC: -0.0873
CTTCGTAC: 0.00322
ATAAAAAA: 0.381
GACGCTGA: -0.136
CGACGTTA: 0.0871
CAACCGCC: -0.312
GTTAAACA: 0.195
AATTTTGG: 0.244
CATCCCAA: 0.155
AACGATCC: -0.122

Series 4 — technique: RNA Bind-n-Seq; form: RNA; medium: in vitro; concentration: 1 µM; notes: whole 134-nt RNA, ends assumed; with: 150 mM KCl; baseline: input library; reading: higher = stronger binding; endpoint: log2 enrichment
Target: Ras GTPase-activating protein-binding protein 1, RRM domain (G3BP1, Homo sapiens, UniProt Q13283)
UniProt Q13283, sequence (whole entry, looked up): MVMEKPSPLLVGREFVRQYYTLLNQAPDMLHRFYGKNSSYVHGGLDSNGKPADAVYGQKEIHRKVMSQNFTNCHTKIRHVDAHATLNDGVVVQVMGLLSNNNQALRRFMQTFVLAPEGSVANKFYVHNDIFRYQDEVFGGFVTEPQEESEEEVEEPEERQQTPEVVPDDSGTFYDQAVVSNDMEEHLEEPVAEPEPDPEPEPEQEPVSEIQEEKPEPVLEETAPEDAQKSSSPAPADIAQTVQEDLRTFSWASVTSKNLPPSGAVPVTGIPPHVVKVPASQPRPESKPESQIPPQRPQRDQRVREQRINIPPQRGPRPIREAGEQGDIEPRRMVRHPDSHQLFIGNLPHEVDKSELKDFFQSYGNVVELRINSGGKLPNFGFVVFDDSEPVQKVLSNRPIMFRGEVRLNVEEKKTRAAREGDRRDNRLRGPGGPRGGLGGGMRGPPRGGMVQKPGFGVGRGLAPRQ
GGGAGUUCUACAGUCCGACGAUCCACAAAAAACACGCACCCACACAGACACAGAGGGAAGGGGUUGGGAUGGGGACAGGGUGCACAGCAGGGCGGGGUAGGACCCCAGCCCCUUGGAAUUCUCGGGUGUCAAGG: -0.229
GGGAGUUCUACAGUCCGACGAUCUGGUAAGAAAUCUGCUUGUUUUAUUAAAAUGCUUAAUUGAAGAAAAUAAUAUUCUUCUGUGAUUAAAAUUAGGAAGAAAUAGAACCAUUUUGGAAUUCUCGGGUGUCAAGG: -0.0906
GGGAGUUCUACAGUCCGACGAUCUGGGAGGUGGAUUUUGUUUAUUUUUUUAGCUUAUUUCCAGGGGUGGGAAUUUUUUUUUAAUAUGUGUCAUGAAUAAAGUUGUUUUUGAAAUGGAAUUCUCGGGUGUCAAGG: 1.96
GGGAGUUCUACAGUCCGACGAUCACCAUGCAGGCGGGCAUCUUUGGGAAGUGGGGCAAGGGGGGGAUAGGGAGGGGGGUAACACUUUGGGAACAGGUGGUCCCAGGUCGUUUCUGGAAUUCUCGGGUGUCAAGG: -0.543
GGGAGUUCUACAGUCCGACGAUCUUGAGAUUGGGUGGAUUCCUAUCAUCUGGAAUUCUGACUCCUCGGGUCUCCUUCUCUAGGUAGCCCAGCAGCAGUGAAGAUGCAGACUGAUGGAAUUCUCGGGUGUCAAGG: -0.415
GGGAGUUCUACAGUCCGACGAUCGUCCUGUGCUACACAUCGUAUGUACCGAAUCGGGAAAGGGUUUUUGGGAAAAAAAGGGAAAGUAUUAUGUUACGCCGUUCGGAUCUGCACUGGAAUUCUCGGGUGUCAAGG: 0.184
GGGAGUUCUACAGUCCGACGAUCGCAGGAAGUAAAAACAAAUGGAAAUGCUUCGGAUAGUGGCAGGGGUGGGGGUUGCUGAGGAAAGGGUGGGAUGGGAGUGGGUAAAGAGUUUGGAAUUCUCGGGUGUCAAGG: 1.35
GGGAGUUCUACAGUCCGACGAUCGUGCUACACAUCGUAUGUACCGAAUCGGGGAAAAAAAGGGGUUUUUUUGGGGAAAAAAAGGGGAAAGUAUUAUGUUACGCCGUUCGGAUCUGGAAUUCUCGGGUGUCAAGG: 1.21
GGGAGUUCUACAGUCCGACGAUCUAACUUUAGAGGAGGAUCUGAUGGACAUGGCAGUGGACGUGGAUUUGGGGAUGGCUAUAAUGGGUAUGGAGGAGGACCUGGAGGUGGCAAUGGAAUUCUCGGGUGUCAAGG: -0.867
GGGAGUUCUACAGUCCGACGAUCCCUGUGCUACACAUCGUAUGUACCGAAUCGGCCCCCCCGGGCCCCCCCGGGCCCCCCCGGAAAGUAUUAUGUUACGCCGUUCGGAUCUGCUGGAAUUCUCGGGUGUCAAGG: -0.65

Repeated from above (series 4):
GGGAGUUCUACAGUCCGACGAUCCACAAAAAACACGCACCCACACAGACACAGAGGGAAGGGGUUGGGAUGGGGACAGGGUGCACAGCAGGGCGGGGUAGGACCCCAGCCCCUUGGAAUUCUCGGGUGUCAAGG: -0.229
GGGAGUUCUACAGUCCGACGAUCUGGUAAGAAAUCUGCUUGUUUUAUUAAAAUGCUUAAUUGAAGAAAAUAAUAUUCUUCUGUGAUUAAAAUUAGGAAGAAAUAGAACCAUUUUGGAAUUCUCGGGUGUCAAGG: -0.0906
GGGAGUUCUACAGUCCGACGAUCUGGGAGGUGGAUUUUGUUUAUUUUUUUAGCUUAUUUCCAGGGGUGGGAAUUUUUUUUUAAUAUGUGUCAUGAAUAAAGUUGUUUUUGAAAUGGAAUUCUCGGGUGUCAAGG: 1.96
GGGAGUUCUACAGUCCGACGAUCACCAUGCAGGCGGGCAUCUUUGGGAAGUGGGGCAAGGGGGGGAUAGGGAGGGGGGUAACACUUUGGGAACAGGUGGUCCCAGGUCGUUUCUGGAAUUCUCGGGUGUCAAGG: -0.543
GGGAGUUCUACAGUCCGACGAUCUUGAGAUUGGGUGGAUUCCUAUCAUCUGGAAUUCUGACUCCUCGGGUCUCCUUCUCUAGGUAGCCCAGCAGCAGUGAAGAUGCAGACUGAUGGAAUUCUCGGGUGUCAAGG: -0.415
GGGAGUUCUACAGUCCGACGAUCGUCCUGUGCUACACAUCGUAUGUACCGAAUCGGGAAAGGGUUUUUGGGAAAAAAAGGGAAAGUAUUAUGUUACGCCGUUCGGAUCUGCACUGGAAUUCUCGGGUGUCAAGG: 0.184
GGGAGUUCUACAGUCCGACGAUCGCAGGAAGUAAAAACAAAUGGAAAUGCUUCGGAUAGUGGCAGGGGUGGGGGUUGCUGAGGAAAGGGUGGGAUGGGAGUGGGUAAAGAGUUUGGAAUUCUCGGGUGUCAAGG: 1.35
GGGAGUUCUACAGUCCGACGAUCGUGCUACACAUCGUAUGUACCGAAUCGGGGAAAAAAAGGGGUUUUUUUGGGGAAAAAAAGGGGAAAGUAUUAUGUUACGCCGUUCGGAUCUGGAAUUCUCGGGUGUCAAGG: 1.21
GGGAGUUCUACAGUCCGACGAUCUAACUUUAGAGGAGGAUCUGAUGGACAUGGCAGUGGACGUGGAUUUGGGGAUGGCUAUAAUGGGUAUGGAGGAGGACCUGGAGGUGGCAAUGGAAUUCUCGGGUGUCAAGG: -0.867
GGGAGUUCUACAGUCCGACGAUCCCUGUGCUACACAUCGUAUGUACCGAAUCGGCCCCCCCGGGCCCCCCCGGGCCCCCCCGGAAAGUAUUAUGUUACGCCGUUCGGAUCUGCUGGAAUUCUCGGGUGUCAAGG: -0.65
